{"data": "Results from different studies", "note": "Compare with care: the assays were run in different laboratories. Numbers after ± are the reported error."}
{"Compound": "O=C(CCCCCCS)Nc1ccccc1", "target": "HDAC8 (Homo sapiens, UniProt Q9BY41)", "test": "ITC", "system": "Tris-HCl buffer", "conditions": "pH 7.5, 25 °C", "measurement": "ΔG", "value": "-7.3 ± 0.4 kcal/mol"}
{"Compound": "[3H]C(CNC(=O)c1ccc(-c2ccsc2)cc1)C([3H])CN1CCN(c2ccccc2OCCF)CC1 (centres unmarked)", "target": "Drd3 (Rattus norvegicus, UniProt P19020)", "test": "radioligand, saturation binding", "system": "HEK293 membranes", "conditions": "30 min, 37 °C", "measurement": "Bmax", "value": "2440 ± 401 fmol/mg protein"}
{"Compound": "CN(C)c1ncnc2c1ncn2[C@@H]1O[C@@H]2COP(=O)(O)O[C@H]3[C@@H](O)[C@H](n4cnc5c(N(C)C)ncnc54)O[C@@H]3COP(=O)(O)O[C@H]2[C@H]1O", "target": "ydaO riboswitch wild type (Bacillus subtilis)", "test": "competition gel-shift", "conditions": "concentration not given", "how to read": "baseline: c-di-AMP", "measurement": "ΔΔG binding", "value": "> 8.1 kcal/mol"}
{"Compound": "CC(C)C[C@H](NC(=O)[C@H](CC(C)C)NC(=O)[C@H](CCC(=O)O)NC(=O)[C@@H](N)CS)C(=O)O", "target": "PPO3 (Agaricus bisporus, UniProt C7FF04)", "test": "enzyme activity, inhibitor", "conditions": "25 µM", "measurement": "remaining activity", "value": "80.4%"}
{"Compound": "CC(C)C[C@H](NC(=O)[C@H](CO)NC(=O)[C@H](CC(C)C)NC(=O)[C@@H]1CCCN1C(=O)CNC(=O)[C@H](Cc1ccccc1)NC(=O)[C@H](Cc1ccccc1)NC(=O)OCC1c2ccccc2-c2ccccc21)C(=O)N[C@@H](CCCNC(=N)N)C(=O)N[C@@H](CO)C(=O)N[C@@H](CCCCN)C(=O)O", "target": "MMP9 (Homo sapiens, UniProt P14780)", "test": "substrate, HPLC", "conditions": "500 µM, 72 h, pH 7.5, 37 °C", "measurement": "hydrolysis product", "value": "7%"}
{"Compound": "CC(=O)C12NC(C)(C)CC1(C)C(=O)C1=C2c2c(c3c4n2C(C)(C)CC2=C4C4(CC(C)(C)NC(C)(C4)C2=O)CC3(C)C)C(=O)C(C)(C)N1 (single isomer, unassigned; (-))", "target": "OPRK1 (Homo sapiens, UniProt P41145)", "test": "agonist, cAMP", "system": "CHO", "conditions": "concentration not given", "measurement": "agonist activity", "value": "inactive"}
{"Compound": "Cc1cc(N2CC[C@](C#N)(C3(C)CC3)C2=O)cc(C(=O)NCc2cc(F)cc(-c3cnn(C)c3)c2)n1", "target": "Proline--tRNA ligase (Plasmodium falciparum, UniProt Q8I5R7)", "test": "thermal shift", "conditions": "added: ATP 2 mM", "measurement": "melting temperature", "value": "62.6 °C"}
{"Compound": "O=C(O)Cc1cccc(O)c1", "target": "p-hydroxyphenylacetate 3-hydroxylase, reductase component (C1-hpah, Acinetobacter baumannii, UniProt Q6Q271)", "test": "ITC", "conditions": "pH 7", "measurement": "ΔH", "value": "-18.9 ± 2.21 kcal/mol"}
{"Compound": "C=C1CN(S(=O)(=O)c2ccc(C)cc2)CCCN(Cc2ccccc2)CCCN(S(=O)(=O)c2ccc(C)cc2)C1", "target": "Endoplasmic reticulum lectin 1 (ERLEC1, Homo sapiens, UniProt Q96DZ1)", "test": "inhibitor, Western blot, refers to: ERLEC1", "system": "HEK-293T transfected", "conditions": "10 µM, 24 h", "measurement": "protein level", "value": "inhibited"}
{"Compound": "CC1CC(C)(C)N(C(=O)CN2C(=O)c3ccccc3C2=O)c2ccc(C(=O)N3CCN(C(=O)CCC4=[N+]5C(=Cc6ccc(-c7ccc[nH]7)n6[B-]5(F)F)C=C4)CC3)cc21 (centres unmarked)", "target": "Mucolipin-1 (MCOLN1, Homo sapiens, UniProt Q9GZU1)", "test": "BRET", "system": "HEK293T", "conditions": "1.3 and 0.67 µM", "measurement": "dissociation rate constant", "value": "0.00333 ± 0.00167 s⁻¹"}
{"Compound": "CC12CC(O)C3CC1(OC1OC(CO)C(O)C(O)C1O)C3(COC(=O)c1ccccc1)C(=O)O2 (centres unmarked)", "target": "Dao (Mus musculus, UniProt P18894)", "system": "mouse brain homogenate", "conditions": "10 µg/mL, 30 min, 37 °C", "measurement": "enzyme activity", "value": "no effect"}
{"Compound": "COc1ccc(-c2cc(C(F)(F)F)nc(S(=O)(=O)CCCC(=O)Nc3ccccc3F)n2)cc1OC", "target": "AVPR2 (Homo sapiens, UniProt P30518)", "test": "cAMP accumulation, positive allosteric modulator", "system": "CHO-K1 overexpressing AVPR2", "conditions": "added: vasopressin at EC20", "measurement": "Emax", "value": "26 ± 8.2%"}
{"Compound": "COc1ccc(-c2ocnc2-c2cc(Br)c(OC)c(OC)c2)cc1OCCCC(=O)NO", "target": "HDAC2 (Homo sapiens, UniProt Q92769)", "test": "inhibitor, fluorogenic", "conditions": "IC50 and twice IC50", "how to read": "baseline: untreated", "measurement": "enzyme activity", "value": "no effect"}
{"Compound": "[11CH3]Nc1ccc(-c2nc3ccc(O)cc3o2)cn1", "target": "APP (Homo sapiens, UniProt P05067)", "test": "binding, PET, reference Logan", "system": "control subjects, grey matter", "how to read": "baseline: cerebellum", "measurement": "distribution volume ratio", "value": "1.01 ± 0.05"}
{"Compound": "CC(C)(Cn1cc(-c2cnc3cccnn23)nn1)c1c[nH]c2ccccc12", "target": "Glucagon-like peptide 1 receptor (Rattus norvegicus, UniProt P32301)", "test": "positive allosteric modulator, refers to: cAMP", "system": "INS-1E", "conditions": "10 µM, added: GLP-1(7-36)", "how to read": "baseline: GLP-1 alone", "measurement": "fold shift of EC50", "value": "27.2 fold"}
{"Compound": "CCCCCCCC(=O)Oc1ccc2c(c1)C(C)(C)C1=C(Cl)C(=O)C(Cl)=CC1=N2", "target": "NOTUM (Homo sapiens, UniProt Q6P988)", "test": "substrate", "measurement": "Vmax", "value": "1.13 µmol/min/mg"}
{"Compound": "O=C(O)c1cc(-c2ccc(CN3CCCC(CO)C3)o2)ccc1Cl (centres unmarked)", "target": "DNA dC->dU-editing enzyme APOBEC-3B, C-terminal domain (Homo sapiens, UniProt Q9UH17)", "test": "binding, 1H CPMG NMR", "conditions": "20 µM protein", "measurement": "signal attenuation", "value": "17.1 ± 11.4%"}
{"Compound": "O=C1CSc2ccccc2N1CCC(=O)N(c1ccc(F)cc1)c1ccc(F)cc1", "target": "Proteasome subunit alpha type-2/Proteasome subunit alpha type-6, 20S proteasome (Homo sapiens, UniProt P25787+P60900)", "test": "proteolysis, activator, fluorogenic peptide", "system": "purified 20S proteasome", "conditions": "added: Suc-LLVY-AMC, Z-LLE-AMC, Boc-LRR-AMC", "measurement": "EC200", "value": "> 30 µM"}
{"Compound": "COc1cc(F)c(C(C)C)cc1C1=C(CN2C(=O)O[C@H](c3cc(C(F)(F)F)cc(C(F)(F)F)c3)[C@@H]2C)CC(C)(C)CC1", "target": "Cholesteryl ester transfer protein (Homo sapiens, UniProt P11597)", "test": "enzyme activity", "system": "healthy male subjects, plasma", "conditions": "oral, 25 mg single dose", "measurement": "time of maximum inhibition", "value": "8 h"}
{"Compound": "O=C(Cc1c(-c2ccccc2)n[nH]c1-c1ccccc1)NO", "target": "ADAM17 (Homo sapiens, UniProt P78536)", "test": "enzyme activity, inhibitor", "conditions": "10 µM", "measurement": "remaining activity", "value": "61%"}
{"Compound": "CN1C(=O)c2cccc3c2C1=Cc1ccccc1N3Cc1cccc(NC2CCN([11CH3])CC2)c1", "target": "Bromodomain-containing protein 4, BD2 (Brd4, Mus musculus, UniProt Q9ESU6)", "test": "tracer, autoradiography", "system": "mouse brain sections", "conditions": "concentration not given, added: unlabeled blocker 10 µM", "measurement": "binding reduction", "value": "40%"}
{"Compound": "Nc1cc(Oc2ccc(-c3ccccc3)cc2)nn1S(=O)(=O)c1ccc(Oc2ccccc2)cc1", "target": "Genome polyprotein, NS2B-NS3 protease (dengue virus type 2, UniProt P29990)", "test": "ESI-TOF MS", "conditions": "20 µM, 1 h, 25 °C", "how to read": "baseline: DMSO control", "measurement": "protein mass shift", "value": "0 Da"}
{"Compound": "CNc1ccccc1C(=O)O[C@H]1C[C@H](n2cnc3c(N)ncnc32)O[C@@H]1COP(=O)(O)OP(=O)(O)O", "target": "Unconventional myosin-Va (Gallus gallus, UniProt Q02440, D297C/G292C/I296C/S293C/V295G)", "test": "stopped-flow FRET", "conditions": "4 °C, added: MgCl2 10 mM", "measurement": "pocket forward rate constant", "value": "0.11 ± 0.01 s⁻¹"}
{"Compound": "Cc1ncsc1-c1ccc([C@@H]2CCCCCCNC(=O)C[C@@H]3N=C(c4ccc(cc4)OCCCCCC(=O)N[C@@H](C(C)(C)C)C(=O)N4C[C@H](O)C[C@H]4C(=O)N2)c2c(sc(C)c2C)-n2c(C)nnc23)cc1", "target": "BRD4 (Homo sapiens, UniProt O60885)", "test": "degrader, immunoblotting", "system": "PC-3", "conditions": "64 nM, 24 h, both isoforms", "measurement": "degradation", "value": "> 90%"}
{"Compound": "CC[C@H](C)[C@H](NC(=O)[C@H](CCCCN)NC(=O)[C@H](CCCCN)NC(=O)[C@@H](NC(=O)[C@H](CCC(=O)O)NC(=O)[C@H](CCC(=O)O)NC(=O)[C@H](CCC(=O)O)NC(=O)[C@H](CO)NC(=O)[C@H](CC(C)C)NC(=O)[C@H](CC(=O)O)NC(=O)[C@H](CC(C)C)NC(=O)CNC(=O)[C@H](CCCNC(=N)N)NC(=O)[C@H](CC(C)C)NC(=O)[C@H](CO)NC(=O)CNC(=O)CNC(=O)CNC(=O)CCCC[C@@H]1SC[C@@H]2NC(=O)N[C@@H]21)C(C)C)C(=O)N[C@@H](CC(C)C)C(=O)N[C@@H](CC(=O)O)C(=O)N[C@@H](CCC(=O)O)C(=O)N[C@@H](C)C(=O)N[C@H](C(=O)N[C@@H](CCCCN)C(=O)N[C@@H](CC(=O)O)C(=O)O)C(C)C", "target": "Fab B11 antibody (human)", "test": "binding, biolayer interferometry", "how to read": "baseline: alanine mutant over wild type", "measurement": "Kd ratio", "value": 0.9}
{"Compound": "C=CC(C)(C)OC[C@H]1O[C@H](O[C@@H]2C3=C([C@H](C)COC(C)=O)C[C@H](O)[C@]3(C)/C=C3/[C@@H](COC)CC[C@H]3[C@@H](C)[C@H]2O)[C@H](O)[C@@H](OC(C)=O)[C@@H]1O", "target": "14-3-3 protein gamma, with p65 peptide (YWHAG, Homo sapiens, UniProt P61981)", "test": "ternary complex formation, 2D fluorescence anisotropy titration", "measurement": "threshold concentration", "value": "10 µM"}
